Assay results of several laboratories.
Each numbered part is a random draw from the data of one study; scales do not carry over between parts. Substitutions count along the parent as printed.

Sample 1 — target: CREB3L4, bZIP domain (human); method: DHFR protein complementation; matrix: yeast; reference: wild-type JUN-FOS pair; reading: higher = stronger binding
Notes: single substitutions, most at no-binding floor
Starting sequence: JUN, bZIP domain (human); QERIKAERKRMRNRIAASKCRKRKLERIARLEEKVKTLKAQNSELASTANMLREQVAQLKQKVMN; partner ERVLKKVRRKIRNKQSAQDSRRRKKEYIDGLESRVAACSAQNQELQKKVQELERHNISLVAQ
Variant	binding fitness
Q55A	-1.4 natural log
Q55L	-1.5 natural log
L45A	-1.47 natural log
S43G	-1.37 natural log
A46V	-1.43 natural log
L52Y	-1.47 natural log
E32D	-1.5 natural log
L52P	-1.49 natural log

Sample 2 — method: DHFR PCA, deep sequencing; matrix: yeast; added: (+)-ABA 2500 µM; reference: wild-type fitted maximum; reading: higher = stronger binding
Target: ABI1, truncated, D143A, DHFR fusion (Arabidopsis thaliana)
Notes: methotrexate growth selection, single substitutions
Starting sequence: PYL1, truncated, DHFR fusion (Arabidopsis thaliana); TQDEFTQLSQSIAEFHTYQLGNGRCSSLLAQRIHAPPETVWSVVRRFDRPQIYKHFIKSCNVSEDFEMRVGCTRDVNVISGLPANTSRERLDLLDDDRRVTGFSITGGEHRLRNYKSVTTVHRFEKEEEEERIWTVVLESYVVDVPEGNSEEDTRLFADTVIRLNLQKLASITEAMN; partner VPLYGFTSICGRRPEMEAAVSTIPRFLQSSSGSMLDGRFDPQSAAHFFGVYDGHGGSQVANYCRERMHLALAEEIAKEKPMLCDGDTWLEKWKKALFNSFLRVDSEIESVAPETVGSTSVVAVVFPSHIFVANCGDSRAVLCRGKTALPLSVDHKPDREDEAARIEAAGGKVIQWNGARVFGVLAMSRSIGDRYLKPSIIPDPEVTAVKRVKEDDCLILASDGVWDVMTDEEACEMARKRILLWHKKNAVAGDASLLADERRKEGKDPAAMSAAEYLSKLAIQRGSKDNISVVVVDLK
Variant	relative binding score
I33S	60%
L91A	47.6%
R69C	94.1%
T6Q	106%
E151V	99.3%
D3I	94.5%
V121K	-4.27%
Y18P	102%

Other studies, line by line — CCND3: CCND3, cyclin fold, Cln2 fusion (human)
HLA class I histocompatibility antigen, A alpha chain allele A*25:01: HLA class I histocompatibility antigen, A alpha chain, allele A*25:01 (Homo sapiens, UniProt P04439)
P1: viral docking peptide; KGVKRKLFAEDSS; partner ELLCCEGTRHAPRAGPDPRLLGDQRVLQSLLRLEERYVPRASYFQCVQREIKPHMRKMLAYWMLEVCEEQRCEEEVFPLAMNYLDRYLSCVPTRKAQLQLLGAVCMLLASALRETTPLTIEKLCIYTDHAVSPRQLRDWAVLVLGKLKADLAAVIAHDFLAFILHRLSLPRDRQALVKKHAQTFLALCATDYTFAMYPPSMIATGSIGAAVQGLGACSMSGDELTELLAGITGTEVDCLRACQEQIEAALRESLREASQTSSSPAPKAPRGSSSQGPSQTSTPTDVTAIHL
Substance	target	assay	test system	setting	how to read	measurement	value
NHDGIQAGV	HLA class I histocompatibility antigen, A alpha chain allele A*25:01	peptide-MHC binding	peptide	concentration not given	–	binding	inactive
P1 D11T	CCND3	yeast growth competition, sequencing	yeast	weak parent motif	reference: not given, higher = stronger binding	normalised enrichment score	-0.016
AESICSYWL	HLA class I histocompatibility antigen, A alpha chain allele A*25:01	peptide-MHC binding	peptide	concentration not given	–	binding	inactive
P1 G2D	CCND3	yeast growth competition, sequencing	yeast	weak parent motif	reference: not given, higher = stronger binding	normalised enrichment score	0.149

Excerpt of the above (sample 2):
Variant	relative binding score
R69C	94.1%
T6Q	106%
